Experimental data gathered from unrelated publications.
Each numbered part is a random draw from the data of one study; scales do not carry over between parts. Changes are numbered by the printed parent chain.

Sample 1
Target: CCNB2, cyclin fold, Cln2 fusion (human)
Method: yeast growth competition, sequencing
Sample: yeast
Notes: weak parent motif
Baseline: not given
Reading: higher = stronger binding
Parent: RBL2 docking peptide (human); STTRRRLFVENDS
Change | normalised enrichment score
R6T | 0.0807
E10K | -0.0936
N11W | 0.398
T2Y | -0.0434
V9H | 0.521
N11V | 0.534
L7F | 0.232
E10Y | -0.308
R5C | 0.11
F8P | 0.431
N11T | 0.348
F8T | 0.232
E10M | 0.974
R6G | -0.4
T3I | 1.15
R4N | -0.373
S13R | 0.556
N11D | 0.768
T2D | -0.0603
T2P | 0.511
T2N | 0.585
R6F | 0.187
E10A | 0.316
R4T | -0.281
V9T | 0.601

Sample 2
Target: ABI1, truncated, D143A, DHFR fusion (Arabidopsis thaliana)
Method: DHFR PCA, deep sequencing
Sample: yeast
Notes: methotrexate growth selection, single substitutions
With: (+)-ABA 17 µM
Baseline: wild-type fitted maximum
Reading: higher = stronger binding
Parent: PYL1, truncated, DHFR fusion (Arabidopsis thaliana); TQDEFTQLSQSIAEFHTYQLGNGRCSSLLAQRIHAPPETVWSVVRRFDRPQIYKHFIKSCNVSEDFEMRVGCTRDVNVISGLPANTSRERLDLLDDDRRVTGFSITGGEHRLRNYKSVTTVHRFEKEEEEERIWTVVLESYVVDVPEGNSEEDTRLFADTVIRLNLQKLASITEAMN
Change | relative binding score [%]
Q167F | 51.4
P36R | 73.2
E4L | 78.9
A175K | 95.8
R88K | 85.4
D97V | 88
E38M | 18.1
E128Q | 89.1
D153L | 0.57
E129F | 76.8
R88G | 1.7
T1I | 86
Q2F | 81.2
T119C | 82.2
N85W | 78.3
K168A | 75
R74F | 8.88
E4N | 72.1
L169Q | -2.68
P37A | 74.7
R99K | 100

Sample 3
Target: BATF2, bZIP domain (human)
Method: DHFR protein complementation
Sample: yeast
Notes: single substitutions, most at no-binding floor
Baseline: wild-type JUN-FOS pair
Reading: higher = stronger binding
Parent: JUN, bZIP domain (human); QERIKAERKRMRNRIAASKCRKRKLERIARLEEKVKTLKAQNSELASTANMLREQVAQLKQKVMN; partner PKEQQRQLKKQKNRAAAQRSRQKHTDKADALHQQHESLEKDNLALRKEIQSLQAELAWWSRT
Change | binding fitness [natural log]
E44D | -0.498
Q55V | -0.834
L52E | -1.15
A57N | -0.271
L52Q | -1.14
L45N | -1.48
V35R | -1.38
A29Q | -0.337
L38F | -1.39
T37S | -0.291
I28L | -0.2
V56F | -1.33
I28W | -0.621
A40N | -0.414
S47E | -0.0859
K39G | -0.746
Q55W | -1.01
A57Q | -0.361

Single results of other studies
Molecule | target | assay | test system | conditions | how to read | quantity | result
PhoQ, residues 284 288 289 292 302 303 NLAAMI | PhoP, residues 12 14 15 18 19 HEGLL (Escherichia coli, UniProt P23836) | Sort-seq, refers to: YFP reporter | E. coli | PhoQ-PhoP variant library, with: 10 µM Mg2+ | baseline: high Mg2+ state, higher = stronger signaling | fold induction | 16.6

Repeated from above (sample 2):
Change | relative binding score [%]
R99K | 100
T119C | 82.2
Q167F | 51.4
T1I | 86
N85W | 78.3
E129F | 76.8
D153L | 0.57
P36R | 73.2
R74F | 8.88
R88K | 85.4
L169Q | -2.68
